Measurements of several laboratories.
Compare with care: the assays were run in different laboratories. Numbers after ± are the reported error.

For `Cc1ccc2c(c1)C(=O)[C@]1(O)CCN(c3ccc4nc(C)ccc4c3)C1=N2.Cl`, the AUC(0-t) was 1.44 ± 0.14 µM·h (plasma; oral, 10 mg/kg).
With `C[C@@H](N)C1CCN(S(=O)(=O)c2cccc3cnccc23)CC1` the AUC(0-t) was 34.8 ng·h/mL (healthy volunteers, fasted, plasma; oral, 150 mg).
`CS(=O)(=O)c1ccc([C@@H](O)[C@@H](CF)NC(=O)C(Cl)Cl)cc1` gave an AUC(0-t) of 23900 ± 2370 ng·h/mL (chicken (Arbor Acres), plasma; oral, 20 mg/kg, with: saline pretreatment).
`Oc1ccc([C@@H](O)c2cc(-c3ncnc4cc(N5CCOCC5)ccc34)c(F)cc2Cl)nn1` gave an AUC(0-t) of 479 ng·h/mL (geometric mean; healthy volunteers, plasma; oral, 100 mg, fasted oral suspension).
The AUC(0-t) of `CO[C@H]1CC[C@H](N2C(=O)CNc3ncc(-c4ccc(C(C)(C)O)nc4)nc32)CC1` is reported as 1900 ng·h/mL (patients, plasma; oral, 60 mg, day 15, geometric mean).
For `O=C(O)c1cc(O)c(O)c(O)c1`, the AUC(0-t) was 1.3 ± 0.57 µM·h (chicken Ross broiler, male, serum; oral, 0.49 mg/kg, 6 h).
For `OC[C@H]1O[C@@H](c2cc(Cc3ccc(C4CC4)cc3)c(Cl)c3c2CCO3)[C@H](O)[C@@H](O)[C@@H]1O`, the AUC(0-t) was 29.7 ± 9.23 ng·h/mL (healthy Korean adults, fasted, plasma; oral, 0.3 mg single dose, separate tablets, with: co-administered drug 50 mg).
With `Cc1ccc(NC(=O)c2ccc(CN3CCN(C)CC3)cc2)cc1Nc1nccc(-c2cncc(-c3oncc3C)c2)n1` the AUC(0-t) was 32100 ± 8190 ng·h/mL (Parkinson's disease patients, plasma; oral, 50 mg/day, 7 days, steady state).
The AUC(0-t) of `COc1c(O)cc(C(=O)O)cc1O` is reported as 0.2 ± 0.07 µM·h (LC-MS/MS; male Ross broilers, serum; intravenous, 0.49 mg/kg gallic acid, 6 h).
`C=CC(=O)NC1CCN(c2ncc3ncnc(Nc4ccc(Oc5ccc6c(c5)ncn6C)c(C)c4)c3n2)CC1` gave an AUC(0-t) of 13.2 µM·h (healthy male volunteers, plasma; oral, 60 mg, unlabelled tablet).
With `C[C@@](Cc1ccc(O)c(O)c1)(NN)C(=O)O` the AUC(0-t) was 84.9 ng·h/mL (male Parkinson's disease patients, plasma; oral, dose not given, 3 h, median).
With `CC[C@H](Nc1ncnc2[nH]cnc12)c1oc2ccccc2c(=O)c1-c1cccc(F)c1` the AUC(0-t) was 31700 ± 24000 ng·h/mL (patients, Cohort-3, plasma; oral, 800 mg twice daily, with: romidepsin 14 mg/m2).
The AUC(0-t) of `COc1nnc2ccc(N3CCC(c4ccc(OCCN5CCN(C)C(=O)[C@H]5C)cc4)CC3)nn12` is reported as 0.391 µM·h (patients, plasma; oral, 20 mg twice daily, single dose, monotherapy).

Excerpt of the above:
The AUC(0-t) of `CO[C@H]1CC[C@H](N2C(=O)CNc3ncc(-c4ccc(C(C)(C)O)nc4)nc32)CC1` is reported as 1900 ng·h/mL (patients, plasma; oral, 60 mg, day 15, geometric mean).
